Measured values pooled from the literature.
± gives the spread as reported.

With CC(C)C[C@@H](NC(=O)[C@@H](Cc1ccccc1)NC(=O)[C@H](N)Cc1ccccc1)C(=O)N[C@H](CCCCN)C(=O)N1CCC(N)(C(=O)O)CC1 the Tmax was ~0.0833 h (human, plasma; intravenous, 5 and 15 µg/kg).
The Tmax of Cc1cc(Nc2nc(C[C@@]3(C(=O)O)CCN(Cc4cccc(Cl)c4F)[C@H](C)C3)cc(C)c2F)n[nH]1 is reported as 1.17 h (Sprague-Dawley rat, plasma; oral, 0.5 mg/kg, single dose).
With N=C(N)NCCC[C@@H]1NC(=O)[C@H](CCCCNC(=O)CC[C@H](NC(=O)CCOCCOCCOCCOCCNC(=O)CC[C@H](NC(=O)CN2CCN(CC(=O)O)CCN(CC(=O)O)CCN(CC(=O)O)CC2)C(=O)NCCOCCOCCOCCOCCC(=O)N[C@@H](CCC(=O)NCCCC[C@@H]2NC(=O)[C@@H](Cc3ccccc3)NC(=O)[C@H](CC(=O)O)NC(=O)CNC(=O)[C@H](CCCNC(=N)N)NC2=O)C(=O)NCCCC[C@@H]2NC(=O)[C@@H](Cc3ccccc3)NC(=O)[C@H](CC(=O)O)NC(=O)CNC(=O)[C@H](CCCNC(=N)N)NC2=O)C(=O)NCCCC[C@@H]2NC(=O)[C@@H](Cc3ccccc3)NC(=O)[C@H](CC(=O)O)NC(=O)CNC(=O)[C@H](CCCNC(=N)N)NC2=O)NC(=O)[C@@H](Cc2ccccc2)NC(=O)[C@H](CC(=O)O)NC(=O)CNC1=O [indium-111 labelled] the tissue uptake was 8.89 ± 1.28 %ID/g (female athymic nude mice, kidney; intravenous, 3 µCi, 0.5 h, U-87 MG glioma xenograft).
With CC[C@H](C)C(=O)N1CCC(NC(=O)Nc2ccc(OC(F)(F)F)c(F)c2)CC1 the Vd/F was 146 L (human, plasma; oral, 16 mg, single dose, healthy volunteers).
For CCc1c2c(nc3ccc(OC4OC(C(=O)O)C(O)C(O)C4O)cc13)-c1cc3c(c(=O)n1C2)COC(=O)C3(O)CC (stereo not drawn), the Tmax was 7.36 h (human patients, plasma; intravenous, 100 mg/m^2 of parent drug).
For N=C(N)NCCC[C@@H]1NC(=O)[C@H](CCCCNC(=O)CCOCCOCCOCCOCCNC(=O)CC[C@H](NC(=O)CCOCCOCCOCCOCCNC(=O)CC[C@H](NC(=O)CN2CCN(CC(=O)O)CCN(CC(=O)O)CCN(CC(=O)O)CC2)C(=O)NCCOCCOCCOCCOCCC(=O)N[C@@H](CCC(=O)NCCOCCOCCOCCOCCC(=O)NCCCC[C@@H]2NC(=O)[C@@H](Cc3ccccc3)NC(=O)[C@H](CC(=O)O)NC(=O)CNC(=O)[C@H](CCCNC(=N)N)NC2=O)C(=O)NCCOCCOCCOCCOCCC(=O)NCCCC[C@@H]2NC(=O)[C@@H](Cc3ccccc3)NC(=O)[C@H](CC(=O)O)NC(=O)CNC(=O)[C@H](CCCNC(=N)N)NC2=O)C(=O)NCCOCCOCCOCCOCCC(=O)NCCCC[C@@H]2NC(=O)[C@@H](Cc3ccccc3)NC(=O)[C@H](CC(=O)O)NC(=O)CNC(=O)[C@H](CCCNC(=N)N)NC2=O)NC(=O)[C@@H](Cc2ccccc2)NC(=O)[C@H](CC(=O)O)NC(=O)CNC1=O [indium-111 labelled], “tumour to tissue ratio” read 42.1 ± 16 (athymic nude mice, female, U-87 MG glioma xenograft, tumour and blood; intravenous, 4 h; reference: tumour over blood).
C[C@@H]1CC[C@H]2[C@@H](C)CO[C@@H]3O[C@@]4(C)CC[C@@H]1[C@]32OO4 has a Tmax of 0.139 h (male Sprague-Dawley rat, plasma; oral, 100 mg/kg).
CC(C)C[C@@H](N)C(=O)NCC(=O)N[C@H](C)C(=O)N[C@H](CO)C(=O)N[C@H](Cc1c[nH]c2ccccc12)C(=O)N[C@H](Cc1c[nH]cn1)C(=O)N[C@H](CCCNC(=N)N)C(=O)N1CCC[C@@H]1C(=O)N[C@H](CC(=O)O)C(=O)N[C@H](CCCCN)C(=O)N[C@H](CS)C(=O)N[C@H](CS)C(=O)N[C@H](CC(C)C)C(=O)NCC(=O)N[C@H](Cc1ccc(O)cc1)C(=O)N[C@H](CCC(N)=O)C(=O)N[C@H](CCCCN)C(=O)N[C@H](CCCNC(=N)N)C(=O)N1CCC[C@@H]1C(=O)N[C@H](CC(C)C)C(=O)N1CCC[C@@H]1C(N)=O has a Tmax of 0.83 h (male Sprague-Dawley rat, plasma; subcutaneous, 10 mg/kg, single dose).
For CN[C@](C)(C[18F])C(=O)O, the tracer uptake was 4 %ID/g (DU-145 tumour model; host not given, liver; 1 h, tumour-bearing).
With CCC(CC)OC1C=C(C(=O)OC(C)OC(=O)C(N)C(C)C)CC(NC(=N)N)C1NC(C)=O (mixture of isomers) the Tmax was 2.4 ± 1.3 h (mouse (fed), plasma; oral, 10 mg/kg).
With CCCCCCCC/C=C\CCCCCCCCOP(O)(O)=S.N the Tmax was 1 h (mouse, female, irradiated; sc, dose not given, 15.6 Gy partial-body, dosed 24 h after).
For CC(=CCC(O)C(C)=Cc1csc(C)n1)CC=CC(C)C(O)C(C)C(=O)C(C)(C)C(O)CC(=O)O (stereo not drawn), the Tmax was 3.3 ± 0.47 h (human, plasma; intravenous infusion, 15.0 mg/m2 KOS-1584, 3 h infusion, cycle 1).
With N#CC1(c2ccc3c(N)ncnn23)OC(COP(=O)(O)OP(=O)(O)OP(=O)(O)O)C(O)C1O (stereo not drawn) the Tmax was 1 h (LC-MS/MS; CD-1 mouse male, lung; oral, 100 mg/kg of remdesivir).
The tracer uptake of O=C(O)CCC(NP(=O)(O)OCCC[C@@H](NC(=O)CCC(NC(=O)c1ccc([18F])cc1)C(=O)O)C(=O)O)C(=O)O (stereo partly drawn) is reported as 0.76 %ID/g (PC-3 tumour model; host not given, spleen; intravenous, 2 h, tumour-bearing).
C(#Cc1cncc(OC[C@@H]2CCN2)c1)c1ccccc1 has a Tmax of 0.92 h (male Sprague-Dawley rat, plasma; oral, 75 mg/kg).

Excerpt of the above:
For CC(=CCC(O)C(C)=Cc1csc(C)n1)CC=CC(C)C(O)C(C)C(=O)C(C)(C)C(O)CC(=O)O (stereo not drawn), the Tmax was 3.3 ± 0.47 h (human, plasma; intravenous infusion, 15.0 mg/m2 KOS-1584, 3 h infusion, cycle 1).
